{"data": "Published values of several laboratories", "note": "Protocols differ between the studies behind these lines. Values joined by “and” are separate records of one study, mostly repeats; a detail may differ. Numbers after ± are the reported error.", "chain of UniProt Q9UM07 (whole entry, looked up)": "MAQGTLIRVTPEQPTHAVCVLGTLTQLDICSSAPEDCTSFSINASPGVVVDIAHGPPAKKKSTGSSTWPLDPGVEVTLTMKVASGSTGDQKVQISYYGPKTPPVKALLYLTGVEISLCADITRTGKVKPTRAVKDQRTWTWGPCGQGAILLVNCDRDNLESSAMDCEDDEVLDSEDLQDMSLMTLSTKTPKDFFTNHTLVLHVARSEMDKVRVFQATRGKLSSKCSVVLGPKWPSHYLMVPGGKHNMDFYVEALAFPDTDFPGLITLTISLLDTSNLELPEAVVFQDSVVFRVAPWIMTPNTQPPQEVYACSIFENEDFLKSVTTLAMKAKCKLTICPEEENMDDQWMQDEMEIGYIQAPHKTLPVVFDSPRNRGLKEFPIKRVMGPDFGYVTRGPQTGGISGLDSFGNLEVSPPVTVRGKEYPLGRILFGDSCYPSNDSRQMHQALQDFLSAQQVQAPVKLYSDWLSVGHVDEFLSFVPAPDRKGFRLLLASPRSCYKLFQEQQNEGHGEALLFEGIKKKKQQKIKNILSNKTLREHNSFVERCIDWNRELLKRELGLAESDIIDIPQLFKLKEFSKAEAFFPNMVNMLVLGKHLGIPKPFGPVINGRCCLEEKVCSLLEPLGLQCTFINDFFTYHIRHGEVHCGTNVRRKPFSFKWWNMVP", "chain of UniProt P33533 (whole entry, looked up)": "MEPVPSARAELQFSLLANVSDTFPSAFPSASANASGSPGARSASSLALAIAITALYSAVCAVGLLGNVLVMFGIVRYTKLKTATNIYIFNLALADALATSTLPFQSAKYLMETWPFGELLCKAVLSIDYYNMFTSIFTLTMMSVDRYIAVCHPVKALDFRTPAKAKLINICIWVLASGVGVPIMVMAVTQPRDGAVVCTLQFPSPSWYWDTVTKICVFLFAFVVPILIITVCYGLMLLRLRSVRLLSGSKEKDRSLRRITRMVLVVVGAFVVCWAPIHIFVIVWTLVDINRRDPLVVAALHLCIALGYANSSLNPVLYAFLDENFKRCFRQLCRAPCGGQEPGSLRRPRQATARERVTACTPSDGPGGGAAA", "chain of UniProt P24723 (whole entry, looked up)": "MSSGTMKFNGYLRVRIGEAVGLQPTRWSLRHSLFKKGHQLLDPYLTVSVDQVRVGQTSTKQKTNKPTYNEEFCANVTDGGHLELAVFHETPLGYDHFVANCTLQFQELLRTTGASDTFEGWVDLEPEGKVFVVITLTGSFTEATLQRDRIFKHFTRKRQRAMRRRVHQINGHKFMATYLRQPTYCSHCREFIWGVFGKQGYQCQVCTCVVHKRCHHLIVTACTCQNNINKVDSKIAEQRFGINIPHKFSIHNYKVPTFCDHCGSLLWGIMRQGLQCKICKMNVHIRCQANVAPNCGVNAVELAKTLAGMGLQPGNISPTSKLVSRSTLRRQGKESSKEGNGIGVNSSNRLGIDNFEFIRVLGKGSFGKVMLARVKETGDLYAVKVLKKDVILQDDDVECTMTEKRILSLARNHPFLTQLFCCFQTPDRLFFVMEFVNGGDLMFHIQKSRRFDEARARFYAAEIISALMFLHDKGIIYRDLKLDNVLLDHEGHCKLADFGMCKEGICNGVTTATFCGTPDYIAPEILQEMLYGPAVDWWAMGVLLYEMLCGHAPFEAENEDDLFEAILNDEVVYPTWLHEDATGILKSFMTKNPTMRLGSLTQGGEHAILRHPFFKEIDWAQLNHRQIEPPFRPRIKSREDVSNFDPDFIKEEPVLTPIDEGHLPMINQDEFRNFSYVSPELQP", "chain of UniProt Q8N568 (whole entry, looked up)": "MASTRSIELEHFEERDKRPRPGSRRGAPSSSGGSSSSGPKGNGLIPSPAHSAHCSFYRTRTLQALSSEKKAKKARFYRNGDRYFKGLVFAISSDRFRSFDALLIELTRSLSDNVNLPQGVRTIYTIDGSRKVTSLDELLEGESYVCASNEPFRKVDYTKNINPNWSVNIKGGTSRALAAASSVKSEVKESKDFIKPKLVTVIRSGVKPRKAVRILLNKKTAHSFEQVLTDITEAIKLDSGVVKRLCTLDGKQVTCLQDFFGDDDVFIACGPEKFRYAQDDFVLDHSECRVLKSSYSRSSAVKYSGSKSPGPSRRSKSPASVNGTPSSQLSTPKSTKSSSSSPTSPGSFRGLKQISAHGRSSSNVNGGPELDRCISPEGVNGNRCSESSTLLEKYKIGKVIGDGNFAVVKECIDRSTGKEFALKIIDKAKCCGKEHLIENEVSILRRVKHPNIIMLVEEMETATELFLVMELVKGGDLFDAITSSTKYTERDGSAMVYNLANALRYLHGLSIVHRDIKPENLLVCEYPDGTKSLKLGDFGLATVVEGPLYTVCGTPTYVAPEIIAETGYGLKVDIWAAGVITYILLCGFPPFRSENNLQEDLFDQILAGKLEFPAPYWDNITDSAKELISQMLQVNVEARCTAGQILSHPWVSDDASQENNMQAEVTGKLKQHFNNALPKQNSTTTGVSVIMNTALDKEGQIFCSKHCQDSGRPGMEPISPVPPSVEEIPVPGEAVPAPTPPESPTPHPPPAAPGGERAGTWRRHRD", "chain of UniProt Q86UX6 (whole entry, looked up)": "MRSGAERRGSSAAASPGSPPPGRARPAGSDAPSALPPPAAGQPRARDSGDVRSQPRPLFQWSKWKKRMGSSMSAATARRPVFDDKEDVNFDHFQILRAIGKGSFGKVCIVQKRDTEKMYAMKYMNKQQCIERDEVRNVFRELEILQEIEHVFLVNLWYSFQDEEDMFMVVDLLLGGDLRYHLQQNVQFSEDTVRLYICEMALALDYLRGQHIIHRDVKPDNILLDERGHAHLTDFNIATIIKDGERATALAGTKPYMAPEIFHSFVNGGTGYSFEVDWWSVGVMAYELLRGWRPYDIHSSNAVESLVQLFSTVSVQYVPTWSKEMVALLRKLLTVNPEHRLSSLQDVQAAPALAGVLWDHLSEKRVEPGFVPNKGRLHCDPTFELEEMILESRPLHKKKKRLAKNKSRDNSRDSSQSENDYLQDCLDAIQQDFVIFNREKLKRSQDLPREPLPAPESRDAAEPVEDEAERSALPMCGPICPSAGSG", "chain of UniProt P07384 (whole entry, looked up)": "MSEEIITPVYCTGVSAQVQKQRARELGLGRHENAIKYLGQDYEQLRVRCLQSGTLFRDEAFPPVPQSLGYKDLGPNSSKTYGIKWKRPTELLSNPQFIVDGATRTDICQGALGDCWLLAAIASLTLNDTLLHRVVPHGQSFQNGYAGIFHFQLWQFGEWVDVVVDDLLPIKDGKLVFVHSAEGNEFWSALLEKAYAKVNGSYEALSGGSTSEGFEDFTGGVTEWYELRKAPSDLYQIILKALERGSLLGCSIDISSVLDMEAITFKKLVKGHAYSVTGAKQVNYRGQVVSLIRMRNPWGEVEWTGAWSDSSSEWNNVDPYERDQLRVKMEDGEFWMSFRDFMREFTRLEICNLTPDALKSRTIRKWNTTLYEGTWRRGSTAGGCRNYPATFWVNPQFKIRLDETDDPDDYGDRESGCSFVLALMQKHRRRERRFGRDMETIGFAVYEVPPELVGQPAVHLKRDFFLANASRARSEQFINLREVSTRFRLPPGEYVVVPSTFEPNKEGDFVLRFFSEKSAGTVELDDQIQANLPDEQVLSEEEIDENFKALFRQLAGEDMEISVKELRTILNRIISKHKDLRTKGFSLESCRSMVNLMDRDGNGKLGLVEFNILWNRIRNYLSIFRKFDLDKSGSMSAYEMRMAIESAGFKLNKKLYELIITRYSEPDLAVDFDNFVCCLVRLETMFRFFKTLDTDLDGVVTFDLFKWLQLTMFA", "chain of UniProt P54310 (whole entry, looked up)": "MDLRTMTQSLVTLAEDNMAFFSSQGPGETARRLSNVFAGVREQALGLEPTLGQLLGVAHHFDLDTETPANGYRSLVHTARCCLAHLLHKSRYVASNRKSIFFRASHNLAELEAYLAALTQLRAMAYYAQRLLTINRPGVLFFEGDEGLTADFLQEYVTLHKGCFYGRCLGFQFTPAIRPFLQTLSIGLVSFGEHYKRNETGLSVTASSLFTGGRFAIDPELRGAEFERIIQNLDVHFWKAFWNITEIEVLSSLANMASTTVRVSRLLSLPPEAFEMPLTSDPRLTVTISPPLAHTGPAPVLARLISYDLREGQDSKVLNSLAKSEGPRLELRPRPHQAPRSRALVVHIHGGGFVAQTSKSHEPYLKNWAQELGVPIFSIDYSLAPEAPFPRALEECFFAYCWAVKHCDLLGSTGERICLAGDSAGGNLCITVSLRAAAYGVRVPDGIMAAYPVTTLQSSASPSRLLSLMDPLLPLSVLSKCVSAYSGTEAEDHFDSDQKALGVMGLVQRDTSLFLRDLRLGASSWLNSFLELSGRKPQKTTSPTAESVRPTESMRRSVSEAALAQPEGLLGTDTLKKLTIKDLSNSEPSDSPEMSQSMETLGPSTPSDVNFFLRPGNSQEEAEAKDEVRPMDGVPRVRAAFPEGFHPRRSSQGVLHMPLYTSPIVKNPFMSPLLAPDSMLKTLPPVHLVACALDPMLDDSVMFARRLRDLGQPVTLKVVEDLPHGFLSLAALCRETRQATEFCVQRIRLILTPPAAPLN"}
{"SMILES": "COc1ccc(F)cc1S(=O)(=O)Nc1cnc2c(c1)C(=O)NCCO2", "tested on": "nicotinic acetylcholine receptor", "assay": "radioligand binding", "conditions": "10 µM", "measurement": "inhibition", "result": "-3%"}
{"SMILES": "O=C1NC2(CC2)COc2ncc(F)cc2[C@H]2COCCN2c2ccn3ncc1c3n2", "test system": "Sprague-Dawley rat, female, adrenals", "conditions": "oral, 10 mg/kg/day, 4 weeks dosing, end of recovery", "measurement": "organ-to-body weight ratio", "result": "0.024 ± 0.004%"}
{"SMILES": "CN(C)[C@H]1C[C@@]23CC[C@@]4(O2)C(=CC[C@]2(C)[C@@H](c5ccc6ccncc6c5)CC[C@H]24)C=C3[C@@H](O)[C@@H]1O", "tested on": "STK32C (Homo sapiens, UniProt Q86UX6)", "assay": "ATP probe labelling, inhibitor, KiNativ profiling", "conditions": "0.1 µM", "measurement": "inhibition", "result": "-0.9%"}
{"SMILES": "Cc1ccc(N2CC3CCC(C2)N3C)cc1C(=O)N[C@H](C)c1cc(-c2cnn(C)c2)nc2ccccc12", "tested on": "CAPN1 (Homo sapiens, UniProt P07384)", "assay": "enzyme activity", "conditions": "10 µM, 0.5 h", "measurement": "remaining activity", "result": "109%"}
{"SMILES": "CN(C)CCCSC(=S)N1CCN(C(=O)/C=C/c2coc3ccccc3c2=O)CC1", "tested on": "Nucleoprotein (N, Tomato spotted wilt virus, UniProt P25999, R94A/Y184A)", "assay": "binding, microscale thermophoresis", "conditions": "7.812 µM", "scale": "dose series", "measurement": "MST response", "result": "0.851 a.u."}
{"SMILES": "CC(C)[C@H]1NC(=O)C[C@H]2/C=C/CCSSC[C@@H](NC1=O)C(=O)N[C@H](Cc1cccc3ccccc13)C(=O)NCC(=O)O2", "tested on": "AXL (Homo sapiens, UniProt P30530)", "assay": "enzyme activity, inhibitor", "conditions": "10 µM", "measurement": "inhibition", "result": "7.8%"}
{"SMILES": "OC[C@H]1CNCCN1C[C@@H]1CCCN1C[C@@H](Cc1ccc2ccccc2c1)N1CCN(CCCC2CCCC2)[C@H](Cc2ccc(O)cc2)C1", "tested on": "Oprd1 (Rattus norvegicus, UniProt P33533)", "assay": "radioligand binding", "test system": "rat brain membranes", "conditions": "500 nM, pH 7.5, 25 °C, together with: 2 nM [3H]DPDPE", "measurement": "remaining binding", "result": "92%"}
{"SMILES": "CS(C)(=O)=Nc1ccc(-c2ccc(-c3nc4cc(O[C@@H]5CO[C@H]6[C@@H]5OC[C@H]6O)[nH]c4cc3F)cc2)cc1", "tested on": "PRKCH (Homo sapiens, UniProt P24723)", "assay": "enzyme activity, inhibitor", "conditions": "10 µM", "measurement": "inhibition", "result": "6%"}
{"SMILES": "N[C@H](C(=O)N1CCCC1)C1CCN(c2nccc3c(-c4ncc(Cl)cc4Cl)cccc23)CC1", "tested on": "PADI4 (Homo sapiens, UniProt Q9UM07)", "assay": "enzyme activity", "conditions": "0.0983 µM, high-affinity site, together with: Ca2+ 1.5 mM", "measurement": "kcat", "result": "1.86 s⁻¹ and 1.78 s⁻¹"}
{"SMILES": "O=C1NC(=O)c2c1c1cc(F)c[n+]3c1c1c2c2cc(O)ccc2[n]1[Ru-4]312([N]=C=S)[S+]3CC[S+]1CC[S+]2CC3 (centres unmarked)", "tested on": "DCLK2 (Homo sapiens, UniProt Q8N568)", "assay": "enzyme activity", "conditions": "100 nM, human enzyme, together with: 10 µM ATP", "scale": "reference: untreated", "measurement": "remaining activity", "result": "72%"}
{"SMILES": "O=C(O)c1cccc(CP(=O)(O)O)n1", "tested on": "Beta-lactamase L1 (Stenotrophomonas maltophilia, UniProt P52700)", "assay": "enzyme activity, inhibitor", "conditions": "together with: nitrocefin", "measurement": "kon", "result": "5500 ± 1500 M⁻¹ s⁻¹"}
{"SMILES": "COc1ccccc1-c1n[nH]c2nc(N[C@H]3CC[C@H](NS(=O)(=O)CC(C)C)CC3)ncc12", "tested on": "mitogen-activated protein kinase 9 (Leishmania donovani, UniProt A0A3Q8IB74)", "assay": "competitor, bead pull-down competition", "test system": "Leishmania donovani extract", "conditions": "10 µM", "scale": "reference: vehicle", "measurement": "relative abundance", "result": 0.21}
{"SMILES": "N[C@@H](Cc1ccccc1)P(=O)(O)O", "tested on": "PAL1 (Petroselinum crispum, UniProt P24481)", "assay": "L-Phe deamination, inhibitor, UV steady-state kinetics", "conditions": "200 µM, together with: L-Phe 1 mM", "measurement": "reaction rate reduction", "result": "14%"}
{"SMILES": "O=C(N1CCCCC1)n1ccnn1", "tested on": "Lipe (Mus musculus, UniProt P54310)", "assay": "enzyme activity, inhibitor, competitive ABPP-SILAC", "test system": "mouse T-cells", "conditions": "concentration not given, 4 h, treated in situ", "scale": "reference: DMSO", "measurement": "activity ratio", "result": 1.93}
